Results collected from several papers.
Protocols differ between the studies behind these lines. Numbers after ± are the reported error.

`CCc1cnc(NC(=O)c2cc(S(=O)(=O)N3CCOCC3)ccc2N(C)C2CCCC2)s1` has a tumour volume of 186 ± 16 mm³ (mouse, HCC827-GR xenograft; intraperitoneal, 10 mg/kg every other day, day 15).
With `Cc1cc(O)cc(O)c1C(=O)c1c2c3c(c(O)cc(C)c3oc1=O)C(=O)c1c(O)cc(O)cc1-2` the tumour volume was 803 ± 168 mm³ (Bel-7402 xenograft, mouse; intraperitoneal, 28 mg/kg daily, day 21).
For `COc1ccc2c(c1)CCn1c[n+]3c(c1-2)-c1ccc(OC)cc1CC3`, tumour weight read “decreased” (tumour growth; NSG mouse, MDA-MB-231 orthotopic xenograft; intraperitoneal, 6 mg/kg, 5 days/week; reference: vehicle).
`O=c1[nH]c(N2CCC3(CC2)CN(CCO)c2cc(F)cc(F)c23)nc2c1CCCC2`: “tumour growth inhibition” 51.9% (mouse, COLO 320DM xenograft; oral, 300 mg/kg twice daily, 11 days).
`COc1ccc(CCNc2ncnc3sc(C)cc23)cc1OC` — result for tumour angiogenesis: “decreased” (item: CD31; mouse LNCaP xenograft; intraperitoneal, 2.6 mg/kg daily).
The tumour regression of `CCN(C(=O)c1cc(F)ccc1Oc1nncnc1N1CCC2(C1)CN([C@H](CCCN(C)CCOC)C(C)C)C2)C(C)C` is reported as 70% (mouse, subcutaneous MOLM-14 AML xenograft; oral, 30 mg/kg daily, 5 weeks).
Under “tumour volume reduction”, `C=CC(=O)N1C[C@H](C)N(c2nc(OC[C@@]34CCCN3C[C@H](F)C4)nc3c(F)c(-c4ccc(F)c5sc(N)c(C#N)c45)c(C(F)(F)F)cc23)C[C@H]1C` is recorded as 20% (NCI-H358 xenograft, mouse; oral, 0.3 mg/kg once daily, 28 days).
`C[C@H](NC(=O)CNC(=O)[C@H](CCC(=O)O)NC(=O)[C@H](CCC(=O)O)NC(=O)[C@H](CC(=O)O)NC(=O)[C@@H]1CCCN1C(=O)[C@H](Cc1ccccc1)NC(=O)[C@H](CS)NC(=O)[C@H](Cc1ccc(O)cc1)NC(=O)CCCNC(=O)CNC(=O)CNC(=O)[C@@H](C)NC(=O)CN)C(=O)N[C@@H](CS)C(=O)N[C@@H](Cc1ccc(O)cc1)C(N)=O` [technetium-99m labelled] — result for “tumour to non-tumour ratio”: 5.18 (SPECT; BALB/c nude mouse, SKBR3 tumour; intravenous, 37 MBq, 120 min).
`C[C@@H](O)[C@H](NC(=O)[C@@H]1CSSC[C@H](NC(=O)[C@@H](Cc2ccccc2)NC(=O)CCNC(=S)Nc2ccc(C[C@H]3CN(CC(=O)O)CCN(CC(=O)O)CCN3CC(=O)O)cc2)C(=O)N[C@@H](Cc2ccc(O)cc2)C(=O)N[C@H](Cc2c[nH]c3ccccc23)C(=O)N[C@@H](CCCCN)C(=O)N[C@@H]([C@@H](C)O)C(=O)N1)C(=O)O` [copper-64 labelled] — result for “tumour uptake decrease”: 76% (HCT116-SSTR2, NCr nude mouse female xenograft; dose not given, 4 h, 64Cu-labelled, together with: Y3-TATE 50 µg, 30 min prior).
Under “tumour growth suppression”, `C#CCCCC(O)/C=C/C(=O)NC1(c2ccc(-c3nc4ccn5c(=O)[nH]nc5c4cc3-c3ccccc3)cc2)CCC1` (centres unmarked) is recorded as 31% (mouse, MDA-MB-468 xenograft; oral, 200 mg/kg twice weekly; reference: DMSO vehicle).
`Clc1ccc(NN=C(c2ccccc2)c2ccccn2)nc1` — result for “tumour growth rate”: “decreased” (nude mouse, A549 xenograft; oral gavage, 55 mg/kg, Cremophor EL vehicle; reference: vehicle).

Some of these lines once more:
Under “tumour growth suppression”, `C#CCCCC(O)/C=C/C(=O)NC1(c2ccc(-c3nc4ccn5c(=O)[nH]nc5c4cc3-c3ccccc3)cc2)CCC1` (centres unmarked) is recorded as 31% (mouse, MDA-MB-468 xenograft; oral, 200 mg/kg twice weekly; reference: DMSO vehicle).
